Assay results of several laboratories.
Protocols differ between the studies behind these lines. Several values in a cell are separate wells, animals, samples, runs or records. ≈ marks a conversion by molar mass, not a printed value.

O=C(NNc1cccc(Cl)c1)c1nnc(C23CC4CC(CC(C4)C2)C3)o1  inhibition (Fusarium graminearum; fungal growth, inhibitor; 50 µg/mL): 100%
c1ccc(C(NCCNC(c2ccccc2)c2ccccc2)c2ccccc2)cc1  inhibition (imidazoline I2 central, rat; binding; 10 µM, Eurofins selectivity panel): -1%
O=C1NC(=O)C(C2C3=C(CCCC3=O)Oc3ccc([N+](=O)[O-])cc32)C(=O)N1 (stereo not shown)  lipid content (3T3-L1 preadipocytes; adipogenesis, Oil Red O staining; IC20, 14 days, single replicate): 0.501 OD492
COc1ccc(-n2nc(C(C)=O)s/c2=N\N=C(/C)c2ccc(NC(C)=O)cc2)cc1  toxicity (HepG2; 10 µM): 93.9%
CC[C@H](C)[C@@H]1NC(=O)[C@@H]2CCCN2C(=O)[C@H](CC(C)C)NC(=O)[C@H](CC(C)C)NC(=O)CNC(=O)[C@@H](NC(=O)[C@@H](NC(=O)[C@H](CC(=O)O)NC(=O)CNC(=O)[C@@H](NC(=O)[C@H](C)NC(=O)CNC(=O)[C@H](CCCCN)NC(=O)[C@H](CC(C)C)NC(=O)[C@H](CC(C)C)NC(=O)[C@H](CCCCN)NC(=O)CNC(=O)[C@@H](NC(=O)[C@@H](N)CC(C)C)C(C)C)C(C)C)C(C)C)CSSC[C@@H](C(=O)O)NC1=O  log2 fold change (RNA-seq, measured: Itgal mRNA; mouse traumatic brain injury, frontal cortex and hippocampus; dose not given; relative to: TBI plus compound vs TBI): -2.55
O=C(O)c1ccc(-c2c[nH]c3ncc(-c4ccccc4)cc23)cc1C1CCCC1  inhibition (murine hepatitis virus; viral replication, nanoluciferase reporter; DBT; 1 µM, 10 h; relative to: DMSO vehicle): 28%
CC[C@H](C)[C@H](NC(=O)[C@H](C)NC(=O)[C@H](CCCCN)NC(=O)[C@H](CC(C)C)NC(=O)[C@H](C)NC(=O)[C@@H](NC(=O)[C@H](Cc1c[nH]cn1)NC(=O)[C@H](CC(C)C)NC(=O)[C@@H](NC(=O)[C@@H](NC(=O)[C@H](CCCCN)NC(=O)[C@H](C)NC(=O)[C@H](C)NC(=O)[C@H](CO)NC(=O)[C@H](CCCCN)NC(=O)[C@H](Cc1ccccc1)NC(=O)[C@@H](NC(=O)[C@H](CCCCN)NC(=O)[C@H](CC(C)C)NC(=O)[C@H](Cc1ccccc1)NC(=O)[C@H](CO)NC(=O)[C@H](CCCCN)NC(=O)[C@H](Cc1c[nH]c2ccccc12)NC(=O)[C@H](CCCCN)NC(C)=O)[C@@H](C)O)[C@@H](C)O)C(C)C)[C@@H](C)O)C(=O)N[C@@H](CO)C(=O)N[C@@H](CO)C(N)=O  MBC range (Acinetobacter baumannii; ATCC 19606): 2 µg/mL (≈ 0.682 µM)
CC1(N)CCN(c2cccnc2NC(=O)c2nc(-c3ncccc3C(F)(F)F)cnc2N)CC1  metabolic activity (Aspergillus fumigatus; 20 µM; relative to: untreated): ≥ 80%
C[C@H]1O[C@@H](O[C@H]2CC[C@@]3(C)[C@@H](CC[C@]4(C)[C@@H]3C=C[C@]35OC[C@@]6(CCC(C)(C)C[C@H]63)[C@@H](O)C[C@]54C)[C@]2(C)CO)[C@H](O)[C@@H](O[C@@H]2O[C@H](CO)[C@@H](O)[C@H](O)[C@H]2O)[C@H]1O  protein level (Western blot, measured: Deptor; mouse, AAV8-TBG-Null control vector, liver; dose not given, high dose, unit not given, with: ethanol; relative to: β-actin): 0.716 and 0.887 and 0.975
COc1cc(CCC[P+](c2ccccc2)(c2ccccc2)c2ccccc2)c(OC)c2c1OCO2.[I-]  LC50 (MDA-MB-231; NCI60 SRB): -4.07 log M

Repeated from above:
CC1(N)CCN(c2cccnc2NC(=O)c2nc(-c3ncccc3C(F)(F)F)cnc2N)CC1  metabolic activity (Aspergillus fumigatus; 20 µM; relative to: untreated): ≥ 80%
